{"data": "Measurements gathered from unrelated publications", "target": "Glycogen synthase kinase-3 alpha (GSK3A, Homo sapiens, UniProt P49840)", "note": "“And” joins repeats or separate records; there may be more than shown."}
{"Structure (SMILES)": "CCn1cc(C(=O)O)c(=O)c2c(N)c(F)c(NC3CCCCC3)cc21", "test": "kinase activity", "conditions": "0.1 µM, added: ATP at Km", "quantity": "inhibition", "result": "93%"}
{"Structure (SMILES)": "CNC1C[S+]2CC[S+]3CC[S+](C1)[Ru-4]321([N]=C=S)[n]2c3ccc(OC)cc3c3c4c(c5cc(F)c[n+]1c5c32)C(=O)NC4=O (stereo not shown)", "test": "KinomeScan", "conditions": "0.1 µM", "how to read": "relative to: untreated", "quantity": "remaining binding", "result": "88%"}
{"Structure (SMILES)": "COc1ccc(NC(=O)Nc2ccc3c(c2)C(=O)N(C(C)CO)CC(C)C(CN(C)Cc2ccc4c(c2)OCO4)O3)cc1 (stereo not shown)", "test": "kinase activity, KinaseProfiler", "conditions": "0.03 µM, species human", "how to read": "relative to: control", "quantity": "remaining activity", "result": "98%"}
{"Structure (SMILES)": "CN1CCN(Cc2ccc(-c3ccc(CO[C@H]4CCC[C@@H]4NC(=O)c4cc(-c5cnn(C)c5)cnc4N)cc3)cc2)CC1", "test": "enzyme activity, inhibitor", "conditions": "0.1 µM", "quantity": "inhibition", "result": "2%"}
{"Structure (SMILES)": "CNC(=O)C[C@H](Cc1ccc(C#N)cc1)NC(=O)c1cc(-c2ccc(CN[C@H](C)c3ccc(C)cc3)o2)ccc1Cl", "test": "enzyme activity, inhibitor", "conditions": "1 µM", "quantity": "activity vs control", "result": "100%"}
{"Structure (SMILES)": "COc1c(Cl)cccc1Nc1c(-c2ccncc2C#C[C@@]2(C)CCCN2C(=O)/C=C/CN(C)C)[nH]c2c1C(=O)NCC2", "test": "cell-free assay, competition with immobilised ligand", "conditions": "3 µM", "quantity": "remaining binding", "result": "100%"}
{"Structure (SMILES)": "C=CC(=O)Nc1cccc(-c2cnc3[nH]cc(C(=O)NC(C)(C)C)c3n2)c1", "test": "kinase activity", "conditions": "0.1 µM", "quantity": "inhibition", "result": "77% and 79%"}
{"Structure (SMILES)": "C=CC(=O)N1CCc2ccc(-n3c(=O)ccc4cnc5ccc(-c6cnn(C)c6)cc5c43)cc21", "test": "KINOMEscan", "conditions": "1 µM", "how to read": "relative to: DMSO control", "quantity": "remaining binding", "result": "100%"}
{"Structure (SMILES)": "CCN1CCN(Cc2ccc(C(=O)Nc3ccc(C)c(NCc4cnc5[nH]ccc5c4OC)c3)cc2C(F)(F)F)CC1", "test": "binding, competition with immobilised ligand", "conditions": "1 µM", "quantity": "remaining binding", "result": "100%"}
{"Structure (SMILES)": "Cc1cccc(O[C@H]2CCC[C@@H](C(C)CNCc3ccncc3)C2)c1 (relative stereo)", "test": "enzyme activity, inhibitor", "conditions": "1 µM", "quantity": "inhibition", "result": "-2%"}
{"Structure (SMILES)": "CN1CC[C@@H](COc2cnc(C#N)cc2-c2ccn3nc(NC(=O)C4CC4)cc3c2)C1", "test": "enzyme activity, inhibitor", "conditions": "1 µM", "quantity": "inhibition", "result": "12%"}
{"Structure (SMILES)": "C=CC(=O)N1Cc2nc(-c3cc(-c4cc(Cl)cnc4Cl)c(F)cc3F)n(-c3ccncn3)c2C1", "test": "cell-free assay, inhibitor", "conditions": "1 µM", "quantity": "inhibition", "result": "5.5%"}
{"Structure (SMILES)": "N[C@H]1CC[C@H](Nc2nccc(-c3cccnc3Oc3ccc(NC(=O)NC4CC4)c4ccccc34)n2)CC1", "test": "kinobead competition pulldown", "system": "HEK293/HCT116 lysate mixture", "conditions": "10 µM, 1 h, 4 °C", "how to read": "lower = stronger competition", "quantity": "log2 LFQ intensity", "result": "29.3 and 29.2 and 29.1"}
{"Structure (SMILES)": "COc1cc(Nc2nccc(-c3cnn4nc(OC)ccc34)n2)cc(C(F)(F)F)c1", "test": "binding, competition with immobilised ligand", "conditions": "1 µM", "quantity": "remaining binding", "result": "100%"}
{"Structure (SMILES)": "Nc1ncc(-c2cc(-c3cnn(CC(F)(F)F)c3)ncc2F)nc1C(=O)NC1CNCC(F)C1 (stereo not shown)", "test": "enzyme activity", "conditions": "1 µM", "how to read": "relative to: DMSO control", "quantity": "remaining activity", "result": "80.1%"}
{"Structure (SMILES)": "NC(=O)[C@@H](O)C[C@H]1CCc2sc3ncnc(O[C@H]4CC[C@H](N5CCOCC5)CC4)c3c21", "test": "enzyme activity, inhibitor", "conditions": "10 µM", "quantity": "inhibition", "result": "11%"}
{"note": "A few entries again:"}
{"Structure (SMILES)": "NC(=O)[C@@H](O)C[C@H]1CCc2sc3ncnc(O[C@H]4CC[C@H](N5CCOCC5)CC4)c3c21", "test": "enzyme activity, inhibitor", "conditions": "10 µM", "quantity": "inhibition", "result": "11%"}
